{"data": "Published values from different studies", "note": "Each line is one published result; not all experiments were run side by side. “And” joins repeats or separate records; there may be more than shown. ± marks the error that the study gave."}
{"Compound": "COc1ccccc1CNC[C@](O)(COCc1ccccc1)[C@@H]1CC[C@@H](C)C[C@H]1OCc1ccccc1", "cell line": "MDA-MB-231", "test": "cell growth or viability, MTT", "setting": "10 µM, 72 h", "inhibition": "95.7%"}
{"Compound": "Cc1cc(C)nc(SCC(=O)Nc2ncc(Cc3cccc(OCc4cn(-c5ccc(Cl)cc5)nn4)c3)s2)n1", "cell line": "PC-3M-luc", "test": "colony formation, colony forming", "setting": "25 µM", "inhibition": "42.4 ± 0.8%"}
{"Compound": "CC(C)C[C@H](NC(=O)[C@H](CO)NC(=O)[C@@H](NC(=O)CNC(=O)[C@@H](N)CCCCN)C(C)C)C(=O)N[C@@H](CO)C(=O)N[C@@H](Cc1ccc(O)cc1)C(=O)N[C@@H](CCCNC(=N)N)C(=O)NCCCC[C@H](NC(=O)[C@H](CCCNC(=N)N)NC(=O)[C@H](Cc1ccc(O)cc1)NC(=O)[C@H](CO)NC(=O)[C@H](CC(C)C)NC(=O)[C@H](CO)NC(=O)[C@@H](NC(=O)CNC(=O)[C@@H](N)CCCCN)C(C)C)C(=O)NCC(=O)NCC(=O)N[C@@H](CS)C(=O)O", "cell line": "4T1", "test": "cell invasion, Matrigel Transwell", "setting": "concentration not given, 24 h, added: CXCL12 200 ng/mL", "scale": "reference: PBS", "inhibition": "59%"}
{"Compound": "Cc1cc(C)nc(SCC(=O)Nc2ncc(Cc3cccc4ccccc34)s2)n1", "cell line": "PC-3M-luc", "test": "colony formation, colony forming", "setting": "1 µM", "inhibition": "27.4 ± 8.7%"}
{"Compound": "Cc1nc2c(F)cc(-c3nc(Nc4ccc(C(=O)NCCCCCC(=O)NO)cc4)ncc3F)cc2n1C(C)C", "cell line": "4T1", "test": "cell growth or viability, CCK-8", "setting": "0.3 µM, 48 h", "inhibition": "48.6%"}
{"Compound": "COc1cc(C(=O)N2CC[C@@H](O)[C@@H](N)C2)cc2nc(-c3cc4cccnc4n3CC3CC3)n(C)c12", "cell line": "human neutrophils", "test": "protein citrullination, inhibitor, flow cytometry, measured: citrullinated proteins", "setting": "3.16 µM, added: ionomycin", "inhibition": "31.1% and 27.3% and 45% and 49%"}
{"Compound": "COc1ccc(CNC[C@](O)(COCc2ccccc2)[C@@H]2CC[C@@H](C)C[C@H]2OCc2ccccc2)cc1", "cell line": "MDA-MB-231", "test": "cell growth or viability, MTT", "setting": "30 µM, 72 h", "inhibition": "100%"}
{"Compound": "CC(C)(COP(=O)(O)OP(=O)(O)OC[C@H]1O[C@@H](n2cnc3c(N)ncnc32)[C@H](O)[C@@H]1OP(=O)(O)O)[C@@H](O)C(=O)NCCC(=O)NCCSCCC(=O)N[C@@H](CO)C(=O)NCC(=O)N[C@@H](CCCNC(=N)N)C(=O)NCC(=O)N[C@@H](CCCCN)C(=O)NCCCC[C@H](NC(=O)CC[C@@H]1NC(=O)[C@@H](CCCNC(=N)N)NC(=O)[C@H](CCCNC(=N)N)NC(=O)[C@@H](CCCNC(=N)N)NC(=O)[C@H](CCCNC(=N)N)NC(=O)[C@H](Cc2csc3ccccc23)NC(=O)[C@@H](Cc2ccccc2)NC(=O)[C@H](Cc2ccccc2)NC1=O)C(N)=O", "cell line": "A549", "test": "N-cadherin expression, Western blot", "setting": "10 µM, 2 days", "inhibition": "~40%"}
{"Compound": "COCCn1cc(COc2cccc(Cc3cnc(NC(=O)CSc4nc(C)cc(C)n4)s3)c2)nn1", "cell line": "PC-3M-luc", "test": "colony formation, colony forming", "setting": "1 µM", "inhibition": "13.5 ± 10.8%"}
{"Compound": "Cc1nc2c(F)cc(-c3nc(Nc4ccc(CNC(=O)CCCCCC(=O)NO)cc4)ncc3F)cc2n1C(C)C", "cell line": "4T1", "test": "cell growth or viability, CCK-8", "setting": "0.3 µM, 48 h", "inhibition": "57.2%"}
{"Compound": "Cc1cc(C)nc(SCC(=O)Nc2ncc(Cc3cccc(OCc4cn(Cc5ccc(C#N)cc5)nn4)c3)s2)n1", "cell line": "PC-3M-luc", "test": "colony formation, colony forming", "setting": "1 µM", "inhibition": "10.8 ± 4.3%"}
{"Compound": "COc1ccc(CNC[C@@](O)(COCc2ccc(OC)cc2)[C@@H]2CC[C@@H](C)C[C@H]2OCc2ccc(OC)cc2)cc1", "cell line": "MDA-MB-231", "test": "cell growth or viability, MTT", "setting": "10 µM, 72 h", "inhibition": "97.1%"}
{"note": "Some of these lines once more:"}
{"Compound": "COc1cc(C(=O)N2CC[C@@H](O)[C@@H](N)C2)cc2nc(-c3cc4cccnc4n3CC3CC3)n(C)c12", "cell line": "human neutrophils", "test": "protein citrullination, inhibitor, flow cytometry, measured: citrullinated proteins", "setting": "3.16 µM, added: ionomycin", "inhibition": "31.1% and 27.3% and 45% and 49%"}
